Measured values gathered from unrelated publications.
Protocols differ between the studies behind these lines.
Target: Serine/threonine-protein kinase TAO3 (TAOK3, Homo sapiens, UniProt Q9H2K8)
One construct used (Q9H2K8 1-898): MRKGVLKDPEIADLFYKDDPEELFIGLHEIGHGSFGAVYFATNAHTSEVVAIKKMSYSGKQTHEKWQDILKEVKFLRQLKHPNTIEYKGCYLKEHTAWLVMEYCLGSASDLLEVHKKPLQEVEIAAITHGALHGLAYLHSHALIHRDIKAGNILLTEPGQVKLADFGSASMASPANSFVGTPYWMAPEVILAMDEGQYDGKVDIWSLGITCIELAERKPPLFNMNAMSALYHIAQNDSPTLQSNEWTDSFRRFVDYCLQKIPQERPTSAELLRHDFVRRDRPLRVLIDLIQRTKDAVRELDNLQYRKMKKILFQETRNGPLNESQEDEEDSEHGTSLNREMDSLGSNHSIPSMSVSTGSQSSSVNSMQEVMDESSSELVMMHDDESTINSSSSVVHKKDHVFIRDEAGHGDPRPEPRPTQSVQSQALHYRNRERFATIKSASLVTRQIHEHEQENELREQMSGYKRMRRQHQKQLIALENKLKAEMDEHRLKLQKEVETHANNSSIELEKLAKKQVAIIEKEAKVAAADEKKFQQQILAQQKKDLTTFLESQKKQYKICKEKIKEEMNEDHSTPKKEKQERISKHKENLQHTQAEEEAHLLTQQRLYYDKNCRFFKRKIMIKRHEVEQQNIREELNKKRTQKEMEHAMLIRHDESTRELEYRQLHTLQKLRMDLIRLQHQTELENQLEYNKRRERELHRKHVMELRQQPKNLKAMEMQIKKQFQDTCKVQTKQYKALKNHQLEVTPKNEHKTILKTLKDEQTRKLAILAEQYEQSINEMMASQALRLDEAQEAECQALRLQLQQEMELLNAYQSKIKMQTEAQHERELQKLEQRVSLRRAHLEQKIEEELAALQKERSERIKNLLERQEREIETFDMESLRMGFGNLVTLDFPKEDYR

Structure (SMILES)	test	conditions	scale	quantity	result
CCN1CCN(Cc2ccc(C(=O)Nc3ccc(C)c(NCc4cnc5[nH]ccc5c4OC)c3)cc2C(F)(F)F)CC1	binding, competition with immobilised ligand	1 µM	–	remaining binding	5.2%
COc1cc(Nc2nccc(-c3cnn4nc(OC)ccc34)n2)cc(C(F)(F)F)c1	binding, competition with immobilised ligand	1 µM	–	remaining binding	72%
COc1ccc(NC(=O)Nc2ccc3c(c2)C(=O)N(C(C)CO)CC(C)C(CN(C)Cc2ccc4c(c2)OCO4)O3)cc1 (centres unmarked)	kinase activity, KinaseProfiler	0.03 µM, species human	relative to: control	remaining activity	84%
C=CC(=O)N1CCc2ccc(-n3c(=O)ccc4cnc5ccc(-c6cnn(C)c6)cc5c43)cc21	KINOMEscan	1 µM	relative to: DMSO control	remaining binding	97%
CN1CCN(Cc2ccc(-c3ccc(CO[C@H]4CCC[C@@H]4NC(=O)c4cc(-c5cnn(C)c5)cnc4N)cc3)cc2)CC1	enzyme activity, inhibitor	0.1 µM	–	inhibition	10%
Cc1ccc(-c2c(/C=C(\C#N)C(=O)NC(C)C)n(CCCO)c3ncnc(N)c23)cc1	cell-free assay, competition with immobilised ligand	1 µM	–	remaining binding	100%
CNC(=O)C1CCN(c2cc(C)c(F)cc2NC(=O)c2ccc(-c3cc(O)ccc3C)c(C)c2)CC1	binding, competition with immobilised ligand	1 µM	–	remaining binding	96%
O=C=[N][Ru-4]123([n]4c5ccc(O)cc5c5c6c(c7cc(F)c[n+]1c7c54)C(=O)NC6=O)[S+]1CC[S+]2CC[S+]3CC1 (centres unmarked)	enzyme activity	100 nM, human enzyme, added: 10 µM ATP	relative to: untreated	remaining activity	100%
NC(=O)[C@@H](O)C[C@H]1CCc2sc3ncnc(O[C@H]4CC[C@H](N5CCOCC5)CC4)c3c21	enzyme activity, inhibitor	10 µM	–	inhibition	1%
C[C@]1(O)CCCN(c2nc(Nc3ccc(S(=O)(=O)N[C@H]4CC[C@H](CN5CCN(c6ccc(C7CCC(=O)NC7=O)cc6F)CC5)CC4)cc3)ncc2C(F)(F)F)C1 (some centres unmarked)	binding, competition with immobilised ligand	1 µM	–	remaining binding	32%
CC(C)=CC1OC(C)(C)C2C=C3C(=O)C(Cl)=CC(O)C3C3C(O)C4OC4C(=O)C132 (centres unmarked)	cell-free assay, competition with immobilised ligand	10 µM	–	remaining binding	79%
CCn1cc(C(=O)O)c(=O)c2c(N)c(F)c(NC3CCCCC3)cc21	kinase activity	0.1 µM, added: ATP at Km	–	inhibition	-5.4%
Cc1cccc(O[C@H]2CCC[C@@H](C(C)CNCc3ccncc3)C2)c1 (relative stereo)	enzyme activity, inhibitor	10 µM	–	inhibition	-11%
C=CC(=O)Nc1cccc(-c2cnc3[nH]cc(C(=O)NC(C)(C)C)c3n2)c1	enzyme activity, inhibitor	0.1 µM	–	inhibition	22%

Excerpt of the above:
Structure (SMILES)	test	conditions	scale	quantity	result
CCn1cc(C(=O)O)c(=O)c2c(N)c(F)c(NC3CCCCC3)cc21	kinase activity	0.1 µM, added: ATP at Km	–	inhibition	-5.4%
